{"data": "Assay results of several laboratories", "note": "Numbered parts are unrelated; each lists some results of a single study.", "UniProt Q16288, sequence (whole entry, looked up)": "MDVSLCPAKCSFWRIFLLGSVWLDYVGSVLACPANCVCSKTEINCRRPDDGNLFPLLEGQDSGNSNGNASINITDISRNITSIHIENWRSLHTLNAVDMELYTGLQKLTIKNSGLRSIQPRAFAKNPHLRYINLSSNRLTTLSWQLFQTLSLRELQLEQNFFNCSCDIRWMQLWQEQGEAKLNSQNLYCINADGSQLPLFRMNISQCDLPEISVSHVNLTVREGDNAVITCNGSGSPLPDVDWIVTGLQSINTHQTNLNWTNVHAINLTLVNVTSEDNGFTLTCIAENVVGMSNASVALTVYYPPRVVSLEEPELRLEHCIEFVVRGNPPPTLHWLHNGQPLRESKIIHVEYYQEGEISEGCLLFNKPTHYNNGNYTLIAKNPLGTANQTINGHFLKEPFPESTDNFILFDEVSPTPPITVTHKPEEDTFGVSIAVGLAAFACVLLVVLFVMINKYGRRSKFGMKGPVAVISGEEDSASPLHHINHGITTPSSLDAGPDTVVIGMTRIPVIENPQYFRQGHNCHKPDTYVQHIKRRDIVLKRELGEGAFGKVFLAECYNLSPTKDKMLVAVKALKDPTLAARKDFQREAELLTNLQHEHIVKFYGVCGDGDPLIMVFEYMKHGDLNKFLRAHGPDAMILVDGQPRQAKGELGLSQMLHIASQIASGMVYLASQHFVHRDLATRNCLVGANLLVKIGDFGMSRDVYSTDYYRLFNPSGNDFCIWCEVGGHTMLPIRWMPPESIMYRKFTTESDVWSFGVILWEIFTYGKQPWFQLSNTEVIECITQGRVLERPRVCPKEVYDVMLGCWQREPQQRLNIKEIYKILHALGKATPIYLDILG", "UniProt P54753, sequence (whole entry, looked up)": "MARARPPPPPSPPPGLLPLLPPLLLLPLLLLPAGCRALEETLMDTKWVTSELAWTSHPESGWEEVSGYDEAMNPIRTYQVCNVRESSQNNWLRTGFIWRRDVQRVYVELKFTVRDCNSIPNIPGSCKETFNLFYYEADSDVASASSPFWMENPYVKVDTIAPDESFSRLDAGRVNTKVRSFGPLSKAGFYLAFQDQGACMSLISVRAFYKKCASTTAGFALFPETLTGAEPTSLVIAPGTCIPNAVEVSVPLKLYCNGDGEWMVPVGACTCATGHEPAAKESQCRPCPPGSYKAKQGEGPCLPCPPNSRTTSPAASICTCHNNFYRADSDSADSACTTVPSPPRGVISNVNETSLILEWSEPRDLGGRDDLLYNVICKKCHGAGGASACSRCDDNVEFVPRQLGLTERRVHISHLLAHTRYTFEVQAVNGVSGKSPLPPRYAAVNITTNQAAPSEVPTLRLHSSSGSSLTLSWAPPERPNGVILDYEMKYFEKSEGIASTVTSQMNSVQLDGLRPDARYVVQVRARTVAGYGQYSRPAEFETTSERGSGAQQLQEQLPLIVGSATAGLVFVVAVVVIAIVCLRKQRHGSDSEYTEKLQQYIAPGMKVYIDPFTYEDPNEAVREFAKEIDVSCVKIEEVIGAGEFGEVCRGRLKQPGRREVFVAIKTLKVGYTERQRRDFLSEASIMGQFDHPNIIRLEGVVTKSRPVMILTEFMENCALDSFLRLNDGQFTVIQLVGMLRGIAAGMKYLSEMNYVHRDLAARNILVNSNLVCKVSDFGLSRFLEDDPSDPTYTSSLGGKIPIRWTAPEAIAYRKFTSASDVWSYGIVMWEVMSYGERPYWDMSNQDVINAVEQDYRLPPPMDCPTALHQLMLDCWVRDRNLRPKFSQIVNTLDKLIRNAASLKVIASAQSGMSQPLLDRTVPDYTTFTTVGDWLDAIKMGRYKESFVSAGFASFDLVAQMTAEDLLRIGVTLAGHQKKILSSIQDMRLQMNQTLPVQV", "UniProt O95835, sequence (whole entry, looked up)": "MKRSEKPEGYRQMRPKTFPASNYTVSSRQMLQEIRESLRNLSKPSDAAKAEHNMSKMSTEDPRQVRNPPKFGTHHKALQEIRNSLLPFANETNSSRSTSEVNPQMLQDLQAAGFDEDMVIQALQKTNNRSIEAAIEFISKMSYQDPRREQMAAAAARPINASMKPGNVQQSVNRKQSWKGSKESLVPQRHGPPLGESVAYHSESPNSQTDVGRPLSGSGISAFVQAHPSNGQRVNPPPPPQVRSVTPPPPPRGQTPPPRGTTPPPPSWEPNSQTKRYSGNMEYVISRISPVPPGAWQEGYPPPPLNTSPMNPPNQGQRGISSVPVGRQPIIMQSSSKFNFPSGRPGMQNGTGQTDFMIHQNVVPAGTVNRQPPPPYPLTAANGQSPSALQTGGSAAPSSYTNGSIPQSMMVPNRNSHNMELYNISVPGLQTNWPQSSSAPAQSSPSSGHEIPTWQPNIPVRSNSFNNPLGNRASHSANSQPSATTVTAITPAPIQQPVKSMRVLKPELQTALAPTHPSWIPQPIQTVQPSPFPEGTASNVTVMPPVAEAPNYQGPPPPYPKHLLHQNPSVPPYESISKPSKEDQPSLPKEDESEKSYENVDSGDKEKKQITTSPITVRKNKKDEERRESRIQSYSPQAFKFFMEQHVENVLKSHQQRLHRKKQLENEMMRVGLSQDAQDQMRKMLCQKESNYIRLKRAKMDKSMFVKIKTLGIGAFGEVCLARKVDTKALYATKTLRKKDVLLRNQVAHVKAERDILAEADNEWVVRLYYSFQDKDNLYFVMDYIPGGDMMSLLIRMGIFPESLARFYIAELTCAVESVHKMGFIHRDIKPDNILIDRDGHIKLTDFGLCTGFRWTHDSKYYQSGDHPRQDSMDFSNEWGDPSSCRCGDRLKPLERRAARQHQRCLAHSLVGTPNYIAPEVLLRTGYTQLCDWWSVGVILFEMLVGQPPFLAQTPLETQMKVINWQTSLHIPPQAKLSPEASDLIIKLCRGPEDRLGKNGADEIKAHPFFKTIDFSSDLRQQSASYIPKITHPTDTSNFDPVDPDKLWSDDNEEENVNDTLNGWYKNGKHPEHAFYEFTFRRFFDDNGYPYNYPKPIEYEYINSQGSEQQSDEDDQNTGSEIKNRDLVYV", "UniProt Q9UKI8, sequence (whole entry, looked up)": "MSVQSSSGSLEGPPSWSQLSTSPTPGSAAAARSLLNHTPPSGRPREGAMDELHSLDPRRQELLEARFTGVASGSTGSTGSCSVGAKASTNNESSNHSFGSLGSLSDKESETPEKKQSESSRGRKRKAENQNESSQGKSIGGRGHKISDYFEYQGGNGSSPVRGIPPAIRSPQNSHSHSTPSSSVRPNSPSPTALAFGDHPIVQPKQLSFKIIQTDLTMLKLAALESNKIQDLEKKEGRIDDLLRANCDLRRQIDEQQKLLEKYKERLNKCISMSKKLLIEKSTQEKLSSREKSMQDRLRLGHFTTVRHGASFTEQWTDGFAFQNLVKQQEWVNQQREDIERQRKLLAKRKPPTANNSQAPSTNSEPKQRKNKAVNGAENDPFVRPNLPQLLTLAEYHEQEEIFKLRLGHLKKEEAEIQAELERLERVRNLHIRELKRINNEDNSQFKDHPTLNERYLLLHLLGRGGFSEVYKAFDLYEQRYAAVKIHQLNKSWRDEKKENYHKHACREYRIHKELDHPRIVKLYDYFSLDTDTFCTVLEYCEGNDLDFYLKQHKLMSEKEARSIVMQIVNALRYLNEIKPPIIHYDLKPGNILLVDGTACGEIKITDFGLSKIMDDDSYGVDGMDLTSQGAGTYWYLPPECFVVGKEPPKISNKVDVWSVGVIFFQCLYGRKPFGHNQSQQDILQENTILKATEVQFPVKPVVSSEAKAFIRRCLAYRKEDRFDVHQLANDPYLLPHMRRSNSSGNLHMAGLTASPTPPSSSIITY", "UniProt P35968, sequence (whole entry, looked up)": "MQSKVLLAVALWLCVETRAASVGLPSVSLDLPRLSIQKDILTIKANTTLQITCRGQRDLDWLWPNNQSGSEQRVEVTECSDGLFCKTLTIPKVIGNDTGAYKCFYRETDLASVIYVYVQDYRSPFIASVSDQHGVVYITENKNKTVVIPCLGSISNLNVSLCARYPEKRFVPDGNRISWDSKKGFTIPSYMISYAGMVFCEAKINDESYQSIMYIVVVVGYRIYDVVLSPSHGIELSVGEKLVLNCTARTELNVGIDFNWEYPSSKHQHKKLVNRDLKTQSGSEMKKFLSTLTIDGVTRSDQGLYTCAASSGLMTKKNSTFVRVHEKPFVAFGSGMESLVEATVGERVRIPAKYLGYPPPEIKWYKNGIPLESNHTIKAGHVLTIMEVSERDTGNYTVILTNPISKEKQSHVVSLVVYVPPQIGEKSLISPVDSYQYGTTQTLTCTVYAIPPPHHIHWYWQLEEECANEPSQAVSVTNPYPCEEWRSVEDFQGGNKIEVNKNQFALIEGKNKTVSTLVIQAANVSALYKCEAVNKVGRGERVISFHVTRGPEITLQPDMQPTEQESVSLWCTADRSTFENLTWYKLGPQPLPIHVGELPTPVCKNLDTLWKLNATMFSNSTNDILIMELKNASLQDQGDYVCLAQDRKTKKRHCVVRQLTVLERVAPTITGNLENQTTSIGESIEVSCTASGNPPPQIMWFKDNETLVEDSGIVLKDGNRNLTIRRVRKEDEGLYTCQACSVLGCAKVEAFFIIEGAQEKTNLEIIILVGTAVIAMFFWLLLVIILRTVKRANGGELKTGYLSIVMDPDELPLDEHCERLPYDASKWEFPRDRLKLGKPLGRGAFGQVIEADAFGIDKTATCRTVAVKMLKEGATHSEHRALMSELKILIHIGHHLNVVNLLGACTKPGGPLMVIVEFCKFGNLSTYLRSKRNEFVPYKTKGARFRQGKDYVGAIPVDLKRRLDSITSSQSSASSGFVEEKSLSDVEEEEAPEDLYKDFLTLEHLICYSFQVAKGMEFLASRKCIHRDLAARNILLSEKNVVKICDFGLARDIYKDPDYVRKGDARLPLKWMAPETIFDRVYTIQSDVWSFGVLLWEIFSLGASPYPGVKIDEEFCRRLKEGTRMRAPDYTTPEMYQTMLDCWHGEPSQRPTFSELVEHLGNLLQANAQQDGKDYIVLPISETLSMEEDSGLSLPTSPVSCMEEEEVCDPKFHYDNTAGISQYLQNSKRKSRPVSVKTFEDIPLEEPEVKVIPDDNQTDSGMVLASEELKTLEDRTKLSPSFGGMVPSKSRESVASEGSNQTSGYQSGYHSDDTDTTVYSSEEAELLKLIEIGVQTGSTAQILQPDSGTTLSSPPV"}
{"data": "Study 1", "Structure (SMILES)": "CS(=O)(=O)N1CCCC(NC(=O)[C@H](CCC2CCCCC2)NC(=O)c2ccc(CNC(=O)c3cnc4ccccn34)cc2)C1 (some centres unmarked)", "concentration": "0.1 µM"}
{"target": "STK33 (Homo sapiens, UniProt Q9BYT3)", "test": "cell-free assay, competition with immobilised ligand", "remaining binding [%]": 100}
{"target": "AAK1 (Homo sapiens, UniProt Q2M2I8)", "test": "binding", "remaining binding [%]": 92}
{"target": "KDR (Homo sapiens, UniProt P35968)", "test": "cell-free assay, competition with immobilised ligand", "remaining binding [%]": 96}
{"target": "DYRK1A (Homo sapiens, UniProt Q13627)", "test": "cell-free assay, competition with immobilised ligand", "remaining binding [%]": 100}
{"target": "Cyclin-dependent kinase 4, with cyclin D1 (CDK4, Homo sapiens, UniProt P11802)", "test": "cell-free assay, competition with immobilised ligand", "remaining binding [%]": 100}
{"target": "EPHB3 (Homo sapiens, UniProt P54753)", "test": "cell-free assay, competition with immobilised ligand", "remaining binding [%]": 87}
{"target": "MYLK4 (Homo sapiens, UniProt Q86YV6)", "test": "cell-free assay, competition with immobilised ligand", "remaining binding [%]": 63}
{"target": "TLK1 (Homo sapiens, UniProt Q9UKI8)", "test": "cell-free assay, competition with immobilised ligand", "remaining binding [%]": 72}
{"target": "LATS1 (Homo sapiens, UniProt O95835)", "test": "cell-free assay, competition with immobilised ligand", "remaining binding [%]": 98}
{"target": "MARK4 (Homo sapiens, UniProt Q96L34)", "test": "cell-free assay, competition with immobilised ligand", "remaining binding [%]": 100}
{"target": "FLT3 (Homo sapiens, UniProt P36888, R834Q)", "test": "cell-free assay, competition with immobilised ligand", "remaining binding [%]": 100}
{"target": "NTRK3 (Homo sapiens, UniProt Q16288)", "test": "cell-free assay, competition with immobilised ligand", "remaining binding [%]": 88}
{"target": "RET (Homo sapiens, UniProt P07949, V804L)", "test": "cell-free assay, competition with immobilised ligand", "remaining binding [%]": 98}
{"target": "PIK3CA (Homo sapiens, UniProt P42336, H1047Y)", "test": "cell-free assay, competition with immobilised ligand", "remaining binding [%]": 84}
{"target": "MTOR (Homo sapiens, UniProt P42345)", "test": "cell-free assay, competition with immobilised ligand", "remaining binding [%]": 100}
{"data": "Study 2", "organism": "Sarcocystis neurona", "effect on": "parasite activity", "concentration": "10 µM", "time": "96 h"}
{"SMILES": "O=C(O)COCCN1CCN([C@H](c2ccccc2)c2ccc(Cl)cc2)CC1", "activity class": "inactive"}
{"SMILES": "O=C(C1CCCCC1)N1CC(=O)N2CCc3ccccc3C2C1 (centres unmarked)", "activity class": "inactive"}
{"SMILES": "CN(C)CCC=C1c2ccccc2COc2ccccc21", "activity class": "inactive"}
{"SMILES": "CCN1CCN(c2cc3c(cc2F)c(=O)c(C(=O)O)cn3C2CC2)CC1", "activity class": "inactive"}
{"SMILES": "CN(C)C(=O)Oc1ccc[n+](C)c1", "activity class": "inactive"}
{"SMILES": "CCOC(=O)CCC(=O)O[C@H]1[C@H](O[C@@H]2[C@@H](C)[C@H](O[C@H]3C[C@@](C)(OC)[C@@H](O)[C@H](C)O3)[C@@H](C)C(=O)O[C@H](CC)[C@@](C)(O)[C@H](O)[C@@H](C)C(=O)[C@H](C)C[C@@]2(C)O)O[C@H](C)C[C@@H]1N(C)C", "activity class": "inactive"}
{"SMILES": "Cn1nnc2c(C(N)=O)ncn2c1=O", "activity class": "inactive"}
{"data": "Study 3", "SMILES": "O=C1Cc2c([nH]c3ccc(Br)cc23)-c2ccccc2N1", "effect on": "enzyme activity", "mode": "inhibitor", "concentration": "0.5 µM", "baseline": "control"}
{"target": "HASPIN (Homo sapiens, UniProt Q8TF76)", "remaining activity [%]": 89.1}
{"target": "SRPK2 (Homo sapiens, UniProt P78362)", "remaining activity [%]": 98.9}
{"target": "BRAF (Homo sapiens, UniProt P15056)", "remaining activity [%]": 97.7}
{"target": "CAMK2A (Homo sapiens, UniProt Q9UQM7)", "remaining activity [%]": 105}
{"target": "Aurora kinase B (AURKB, Homo sapiens, UniProt Q96GD4)", "remaining activity [%]": 84.3}
{"data": "Study 4", "host": "human", "medium": "microsomes or S9", "concentration": "2 µM", "time": "0.5 h"}
{"SMILES": "COc1ccc(-n2ccc3cc(NC(=O)N4CCOCC4)ccc32)cc1Cl", "remaining compound [%]": 69.3}
{"SMILES": "CCN1C(=O)C2(CC(=O)Nc3c2cnn3-c2nc3ccccc3s2)c2cccc(C)c21 (centres unmarked)", "remaining compound [%]": 37.4}
{"SMILES": "CCOCc1cc(-c2ccccc2)[nH]c(=O)c1C#N", "remaining compound [%]": "> 99"}
{"SMILES": "CC(C)(C)Nc1ncc(-c2cn[nH]c2)cc1-c1nc2ccccc2o1", "remaining compound [%]": 99.1}
{"SMILES": "COc1cc(OC)c2nc(N3C[C@@H](NC(C)=O)[C@H](C(C)C)C3)cc(C)c2c1", "remaining compound [%]": "> 99"}
{"SMILES": "Cc1nc(-c2ccc3c(c2)CCN3C(=O)Cc2c[nH]c3ccccc23)cs1", "remaining compound [%]": 28.6}
{"SMILES": "COc1ccc(OC)c(C(c2c(O)cc(C)n(C)c2=O)c2c(O)cc(C)n(C)c2=O)c1", "remaining compound [%]": 89.7}
{"SMILES": "CC(=O)c1[nH]c(C)c(C(=O)N[C@H]2C[C@@H](c3nnc(CO)n3C)C2)c1C", "remaining compound [%]": 89.1}
{"note": "For quick reference, copied from above (study 1):"}
{"target": "AAK1 (Homo sapiens, UniProt Q2M2I8)", "test": "binding", "remaining binding [%]": 92}
{"target": "KDR (Homo sapiens, UniProt P35968)", "test": "cell-free assay, competition with immobilised ligand", "remaining binding [%]": 96}
{"target": "DYRK1A (Homo sapiens, UniProt Q13627)", "test": "cell-free assay, competition with immobilised ligand", "remaining binding [%]": 100}
